Measured values collected from several papers.
Protocols differ between the studies behind these lines. ± marks the error that the study gave.

CC(C)[C@H](NC(=O)[C@@H]1CCCN1C(=O)[C@H](CCCNC(=N)N)NC(=O)[C@H](CS)NC(=O)[C@H](Cc1c[nH]c2ccccc12)NC(=O)[C@H](CCCNC(=N)N)NC(=O)[C@@H](Cc1ccccc1)NC(=O)[C@H](Cc1c[nH]cn1)NC(=O)[C@H](CCC(=O)O)NC(=O)[C@H](CS)NC(=O)[C@H](CS)NC(=O)[C@H](CCCCN)NC(=O)[C@@H]1CC(=O)N[C@@H](CCCNC(=N)N)C(=O)N[C@@H]([C@@H](C)O)C(=O)N[C@@H](CC(=O)O)C(=O)N[C@H](Cc2ccc(O)cc2)C(=O)N1)C(N)=O [technetium-99m labelled]  tissue uptake (C57 mouse, female, B16/F1 melanoma, stomach; intravenous, 2 h, with: NDP-MSH 10 µg co-injected): 1.11 ± 0.82 %ID/g
COc1ccc(-c2cc(=O)c3c(OC)c(OC)c(OC)c(OC)c3o2)cc1  tissue to peel content ratio (C57BL/6 mouse, male, colon; oral, 1% w/w in diet, 6 weeks, orange peel extract diet; reference: content in orange peel): 0.121%
CC(=O)N[C@H](CCNC(=O)c1cc(NC(=O)c2cc(NC(=O)c3cc(NC(=O)c4nccn4C)cn3C)cn2C)cn1C)C(=O)Nc1cn(C)c(C(=O)Nc2cc(C(=O)Nc3cc(C(=O)Nc4cc(C(=O)NCCCN(C)CCCN[14C](=O)c5cccc([14C](=O)O)c5)n(C)c4)n(C)c3)n(C)c2)n1  tissue concentration (NSG mouse, male, LNCaP xenograft, LNCaP xenograft tumour; intraperitoneal, 20 nmol/animal, 24 h): 1.06 µM
CCCC[C@@H]1NC(=O)[C@@H](NC(=O)[C@H](CCC(=O)O)NC(=O)CNC(=O)CN2CCN(CC(=O)O)CCN(CC(=O)O)CCN(CC(=O)O)CC2)CCCCNC(=O)C[C@@H](C(N)=O)NC(=O)[C@H](C(C)C)NC(=O)[C@@H]2CCCN2C(=O)[C@H](CCCNC(=N)N)NC(=O)CNC(=O)[C@H](Cc2c[nH]c3ccccc23)NC(=O)[C@H](CCCNC(=N)N)NC(=O)[C@@H](Cc2ccccc2)NC(=O)[C@H](Cc2c[nH]cn2)NC(=O)[C@H](CCC(=O)O)NC1=O [indium-111 labelled]  tissue uptake ratio (C57 mouse, B16/F10 lung metastasis; intravenous, 0.037 MBq, 24 h; reference: lung over kidney): 0.02
COc1ccc(-c2cc(=O)c3c(OC)c(OC)c(OC)cc3o2)cc1OC  tissue to peel content ratio (C57BL/6 mouse, male, colon; oral, 1% w/w in diet, 6 weeks, orange peel extract diet; reference: content in orange peel): 0.254%
COC(=O)C[C@](O)(CCCC(C)(C)O)C(=O)O[C@@H]1C(OC)=C[C@]23CCCN2CCc2cc4c(cc2[C@H]13)OCO4  tissue concentration (CD1 mouse, brain; oral, 1 mg/kg, 8 h, below quantification limit 1.00 ng/mL): not detected
COc1ccc(-c2oc3c(OC)c(OC)cc(O)c3c(=O)c2OC)cc1OC  tissue to peel content ratio (C57BL/6 mouse, male, colon; oral, 1% w/w in diet, 6 weeks, orange peel extract diet; reference: content in orange peel): 2.13%
CC(C)[C@H](NC(=O)[C@@H]1CCCN1C(=O)[C@H](CCCNC(=N)N)NC(=O)[C@H](CS)NC(=O)[C@H](Cc1c[nH]c2ccccc12)NC(=O)[C@H](CCCNC(=N)N)NC(=O)[C@@H](Cc1ccccc1)NC(=O)[C@H](Cc1c[nH]cn1)NC(=O)[C@H](CCC(=O)O)NC(=O)[C@H](CS)NC(=O)[C@H](CS)NC(=O)[C@H](CCCCN)NC(=O)[C@@H]1CC(=O)N[C@@H](CCCNC(=N)N)C(=O)N[C@@H](C(C)C)C(=O)N[C@@H](CC(=O)O)C(=O)N[C@H](Cc2ccc(O)cc2)C(=O)N1)C(N)=O [technetium-99m labelled]  tissue uptake (C57 mouse, female, B16/F1 melanoma, brain; intravenous, 2 h, with: NDP-MSH 10 µg co-injected): 0.03 ± 0.01 %ID/g
COc1ccc(S(=O)(=O)Nc2nc(-c3cccc([N+](=O)[O-])c3)c(CN3CCCCC3)s2)cc1OC  tissue concentration (wild-type mouse, muscle; oral, 300 mg/kg, 5 h): 1.6 µM

Some of these lines once more:
CC(=O)N[C@H](CCNC(=O)c1cc(NC(=O)c2cc(NC(=O)c3cc(NC(=O)c4nccn4C)cn3C)cn2C)cn1C)C(=O)Nc1cn(C)c(C(=O)Nc2cc(C(=O)Nc3cc(C(=O)Nc4cc(C(=O)NCCCN(C)CCCN[14C](=O)c5cccc([14C](=O)O)c5)n(C)c4)n(C)c3)n(C)c2)n1  tissue concentration (NSG mouse, male, LNCaP xenograft, LNCaP xenograft tumour; intraperitoneal, 20 nmol/animal, 24 h): 1.06 µM
